Results collected from several papers.
A part holds a random share of what one study measured.

Sample 1
Target: Histone acetyltransferase KAT6A, both winged helices, GST fusion (KAT6A, Homo sapiens, UniProt Q92794, residues 1-181)
Technique: protein binding microarray
Form: double-stranded DNA, one strand shown
Medium: in vitro
Concentration: not given
Setting: 8-mer, flanks averaged, mean of 2 arrays, mostly near background
Reference: not given
Direction: higher = stronger binding
Residues (chain): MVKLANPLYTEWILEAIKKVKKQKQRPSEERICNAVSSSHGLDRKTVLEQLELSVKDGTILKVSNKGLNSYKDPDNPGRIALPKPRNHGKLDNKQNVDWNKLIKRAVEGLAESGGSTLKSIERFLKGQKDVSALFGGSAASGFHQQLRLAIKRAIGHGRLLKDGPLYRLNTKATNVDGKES
Sequence | E-score
ATATAGGG | -0.0272
AAGGGCTA | -0.106
AGCCATTA | -0.0941
ATACGATA | -0.0436
AGCCCCAC | -0.229
AGTGATTA | 0.00781
AGTCAGAC | -0.123
GTACAAAA | -0.0167
ACCAACAT | -0.000685
CCAGTACG | -0.0442
GCGATCTA | 0.161
CGCGTAAG | 0.298
CAACGATG | -0.246
TCGGTGAA | 0.0682
CCGGGTCA | 0.169
CCAACTTA | -0.142
AGATTAAA | -0.00282
ATTCATCC | -0.146
TGAGACAA | -0.179
ACCCATCC | -0.152
CGCCGTAC | 0.34
CAATTGGG | -0.136
AATCCACA | -0.125
CACGTTAA | -0.113
GAGCGTAC | 0.232

Sample 2
Target: RING finger protein unkempt homolog, zinc fingers 1-6, SBP tag (UNK, Homo sapiens, UniProt Q9C0B0, residues 30-357)
Sequence of UniProt Q9C0B0 (30-357, looked up): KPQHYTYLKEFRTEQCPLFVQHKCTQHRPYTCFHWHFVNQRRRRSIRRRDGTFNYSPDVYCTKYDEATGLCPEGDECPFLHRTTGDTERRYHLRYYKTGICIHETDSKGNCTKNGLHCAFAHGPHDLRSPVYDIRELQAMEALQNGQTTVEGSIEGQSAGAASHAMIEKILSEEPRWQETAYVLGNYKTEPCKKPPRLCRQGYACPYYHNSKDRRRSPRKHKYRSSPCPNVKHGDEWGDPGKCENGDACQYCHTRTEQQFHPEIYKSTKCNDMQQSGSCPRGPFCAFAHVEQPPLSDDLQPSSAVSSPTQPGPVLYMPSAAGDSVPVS
Technique: RNA Bind-n-Seq
Form: RNA
Medium: in vitro
Concentration: 100 nM
Setting: RNA with constant flanks, vertebrate orthologous sites, ends assumed
Reference: input RNA pool
Direction: higher = stronger binding
Sequence | bound/input enrichment [ratio]
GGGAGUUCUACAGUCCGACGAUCUGAAGAAGAGACCCCUGUGGUUUCUAAUAGGUAAUUUGCUCGUUUUUAGAUAUUUCACUCAACAAUUCUUGACUGAACGGGUAUGCCAACAUUUUUUCACAUAAGGGUGAGCAGUCUUCACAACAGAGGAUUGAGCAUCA | 0.573
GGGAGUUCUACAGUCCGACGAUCUCCCCUGGGCCGGGACAGAUUUUUUUUUUUAAUGUCUUGAAACUUAAAACUCUGUGCUUGUAGGAGACUGUAACCUUUUUGUCUUUUUUUUUUUAAAAAAAACAAUCUCCACCUCCAGUGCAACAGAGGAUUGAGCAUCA | 0.83
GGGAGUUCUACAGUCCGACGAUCAAAGGGUUUGUAAAGCAUUUUGCCAUUUGGAUGCGGUCUGCUGGCCCCUCCACAAUACCACGUUAAUAUGUUUUUUUUUUAAGAUGUUAGGAUCUAACUGAAUUUACUAAAAUGUAAUUACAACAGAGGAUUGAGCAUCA | 0.555
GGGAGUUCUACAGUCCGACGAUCUUACAGUCAUUGAUGGACUCUAUUUUUUUAUUAUUACUUGGACCUUGGUCGUUUUUAUACUAGCAAGAUGUCUUGUUUUAAUUUGUGUUUUUUUUGGGGGGAGGGAGUGAACUUGCUGAUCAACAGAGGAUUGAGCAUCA | 2.14
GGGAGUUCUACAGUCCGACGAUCCCCUCUGAAUCCCAUAUCUUCUGUUUCAUAGUGCAGAAGUAUUCUUUUCAAUUAUAUUAUUAGUGGACUUGAUUUAAUUUUAGAGAAACUUUCAGUACAGAUACUGUGAGCUUACCUGGACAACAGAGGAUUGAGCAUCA | 1.06
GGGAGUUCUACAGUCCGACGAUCACAGAAGAAGAGCUCACAACUCAGAAGGAACUAUUAGAAGAGUUUCUAAUGGCUGAAAGCUAGGAAAAAUUAGGACAAUUUUACAAAUGAGCCAUCAAAACAAAACAAAAAGAAAUGGAACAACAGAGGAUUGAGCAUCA | 1.36
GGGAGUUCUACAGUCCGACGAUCCCGAAAGGCCAAAUUCCUUCCUCCCUUCUACUGCUUCUCCCAACUGGAAGCACAGAAAACUAGAACUUCAUUUAUUUUGUUUUUUAAAAAGAUACACUGAUUUAACAUCCGAUAGGAAUGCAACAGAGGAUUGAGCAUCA | 1.68
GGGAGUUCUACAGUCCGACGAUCAUUCAAGCCUGUGGUGCCCUGGCCUCACGUCGAAGGGAUAGAAGUGGACUUAGAGUCGAUCCGAAGAAAGAACAAGGCCAGAAAUGAGCAAGAGCGCCACGCCGGCGGAGACGAGCAGAGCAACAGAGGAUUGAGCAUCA | 0.229

Sample 3
Target: Phosphate system positive regulatory protein PHO4, full length, GST-tagged (PHO4, Saccharomyces cerevisiae, UniProt P07270, residues 1-312)
Technique: competition protein-binding microarray
Form: double-stranded DNA, one strand shown
Medium: in vitro
Concentration: 2 µM
Setting: whole 60-bp probe, lowest competitor level
With: Cbf1 competitor, 0.05 µM
Direction: higher = stronger binding
Target sequence (chain): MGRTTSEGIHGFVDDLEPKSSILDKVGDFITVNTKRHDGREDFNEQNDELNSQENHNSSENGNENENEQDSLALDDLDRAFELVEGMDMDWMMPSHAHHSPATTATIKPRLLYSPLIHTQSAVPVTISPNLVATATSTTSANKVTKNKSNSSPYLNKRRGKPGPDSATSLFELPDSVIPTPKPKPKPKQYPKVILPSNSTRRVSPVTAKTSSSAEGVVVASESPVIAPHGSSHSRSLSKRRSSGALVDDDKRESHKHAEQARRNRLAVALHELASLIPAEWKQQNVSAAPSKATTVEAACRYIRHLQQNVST
Sequence | fluorescence intensity
AAATTACTAAGTTGTCTTGTGGGTGACGCCGTATGAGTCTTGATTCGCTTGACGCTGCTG | 4250 a.u.
AAAAGTTTAAACTGGCACGGGCTATTGCGTCTCATAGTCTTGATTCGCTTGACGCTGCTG | 8730 a.u.
CTTCTGTAAATTTGTCACCGTACTTGACGCGCCCCGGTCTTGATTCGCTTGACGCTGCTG | 3330 a.u.
CGTCCTAGCGATTGATATGTGGGTGCCATGAGGAAGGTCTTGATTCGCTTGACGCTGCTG | 6490 a.u.
GTAACAGTATACGATCATGTGATATTACGTACATAAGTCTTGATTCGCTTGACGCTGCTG | 6770 a.u.
AAAGCGGTAATTTGAACGGTGGGTGCAGATATCTATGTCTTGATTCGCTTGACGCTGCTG | 4030 a.u.
AAATTACTAAGTTGTCACTGAACTTACCCCGTATGAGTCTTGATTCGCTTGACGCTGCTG | 2550 a.u.
CTTTCCCGATCTTGTTAGGTGGGTGTAGCACATTTGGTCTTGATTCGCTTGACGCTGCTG | 4140 a.u.
CTTTCCCGATCTTTTCACGTGCTATTAGCACATTTGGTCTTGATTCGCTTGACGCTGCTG | 16000 a.u.
CAGTTATGAGACTGTATCATGACAATACCTTATTTGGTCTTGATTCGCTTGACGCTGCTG | 3540 a.u.
TGCTTATGGAGGTCCCACGTGCTTTTATCCGACAGCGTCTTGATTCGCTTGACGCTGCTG | 18400 a.u.
AAATTACTAAGTTGGATAGTGGGTGACGCCGTATGAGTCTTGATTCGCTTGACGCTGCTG | 3900 a.u.
AAAGCGGTAATTTTTCACGTGTAGTCAAATATCTATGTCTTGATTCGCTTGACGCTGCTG | 14000 a.u.
CTATTTCCGTTACCCGCCGTGCAATACAGCATCGCTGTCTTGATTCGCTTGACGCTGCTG | 6550 a.u.
AAAGCGGTAATTTGTTGCGTGGGTGCAGATATCTATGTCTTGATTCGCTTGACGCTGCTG | 6930 a.u.
CCGATTTTGTCCTTTAGCGTGACTCGGATTATACGCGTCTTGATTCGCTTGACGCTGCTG | 4060 a.u.
CTATTGTCTTAGAATCACGTGGACCCTAGACTATAGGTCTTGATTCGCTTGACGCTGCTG | 15600 a.u.
AGATCCTCTTGGGATCTTGTGCGACGGGGAGATTGAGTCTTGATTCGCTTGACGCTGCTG | 3930 a.u.

Sample 4
Target: RNA binding protein fox-1 homolog 2, RRM domain, GST-SBP tag (RBFOX2, Homo sapiens, UniProt O43251-10, residues 100-194)
Technique: RNA Bind-n-Seq
Form: RNA
Medium: in vitro
Concentration: 365 nM
Setting: natural RNA segment, single round, ends assumed
Reference: no-protein control
Direction: higher = stronger binding
Residues (chain): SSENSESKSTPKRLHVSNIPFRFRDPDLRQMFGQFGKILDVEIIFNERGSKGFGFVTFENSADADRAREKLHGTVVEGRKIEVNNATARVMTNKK
Sequence | RBNS enrichment (R)
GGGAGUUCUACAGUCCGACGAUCGAUGAACCAGAUCCAGUCUGUAGAGGUUUGACAUUCGCCUGCCUCGGUUCUCCUCUUCCUCCACGCCGCCCCCUGAGCCCCCCUACAUCGGUCCCCCUGCUGCUCUGUCCUGGAAUUCUCGGGUGCCAA | 0.704
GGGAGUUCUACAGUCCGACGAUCACGAGCUGUCAAAGCGUAGCCAGCCAGGGGCAGGCCCCUGCUGCCCGGAAGCUCCCGCGUGCAUCCCGGGAUGACCAGACUCCCGGACUCCUCAGGCAGUGCCCUUCCUCUGGAAUUCUCGGGUGCCAA | 0.184
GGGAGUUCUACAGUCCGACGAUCUUAUUAUCCUCUCUCUUGGCUUCUCUCUUUCUGAUAUCAGUUCCUGAAGCCUCUCACUAACCCCUAGCUCCAGGAGUACCUCAGCAAUGUCCAUGGCUGAAGCUACACCCUGGAAUUCUCGGGUGCCAA | 0.298
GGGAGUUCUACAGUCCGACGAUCUUUUAGGUAUAAAUUCUUAUGCUUUAACAUUAUUUCUGGAUUGAAAAUCUUAUAAAACCCUUGAAAAUAAACAGUCUCUUUUUUACAAAGCCUGUGUUAGAGCACAGAUUUGGAAUUCUCGGGUGCCAA | 0.352
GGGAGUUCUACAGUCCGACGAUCAUCUGAUUUGUAAUUACAAUUUUGGAAUUCUCUGUUUUAGUUGCUGAGGCCUGAGUUUUCUGGCUCUUAAAGCAUAGAUCAUUUCACCUGAUGUUUUUGAAGCAUCCUAAUGGAAUUCUCGGGUGCCAA | 0.57
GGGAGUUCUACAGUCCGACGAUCGCUUUCUGCUUUCAAAAUUGAGGAAAAUAAACCAGAAAAUGCCAAAAGUACUGUUUUAGCAGUGCACGUUCACUUCCACAGAGACUUUUAGGUGGGACUGUUCCAAGACAUGGAAUUCUCGGGUGCCAA | 2.66

For quick reference, copied from above (sample 1):
Sequence | E-score
CCAACTTA | -0.142
AGATTAAA | -0.00282
ATTCATCC | -0.146
TGAGACAA | -0.179
ACCCATCC | -0.152
CGCCGTAC | 0.34
CAATTGGG | -0.136
AATCCACA | -0.125
